Measurements of several laboratories.
Parts stem from different laboratories: compare values within a part only.
UniProt P34969, sequence (whole entry, looked up): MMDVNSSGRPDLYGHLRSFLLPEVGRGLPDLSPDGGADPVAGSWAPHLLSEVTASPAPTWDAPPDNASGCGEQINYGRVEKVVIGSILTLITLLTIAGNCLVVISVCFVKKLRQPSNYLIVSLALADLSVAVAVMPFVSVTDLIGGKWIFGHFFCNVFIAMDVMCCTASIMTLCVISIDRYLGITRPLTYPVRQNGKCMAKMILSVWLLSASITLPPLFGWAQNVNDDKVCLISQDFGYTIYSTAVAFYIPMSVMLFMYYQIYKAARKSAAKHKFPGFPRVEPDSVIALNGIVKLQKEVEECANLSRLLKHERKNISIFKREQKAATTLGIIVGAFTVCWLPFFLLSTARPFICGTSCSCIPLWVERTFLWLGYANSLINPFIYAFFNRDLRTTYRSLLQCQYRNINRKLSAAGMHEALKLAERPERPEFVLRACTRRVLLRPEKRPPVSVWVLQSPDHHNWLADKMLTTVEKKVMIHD
UniProt P10721, sequence (whole entry, looked up): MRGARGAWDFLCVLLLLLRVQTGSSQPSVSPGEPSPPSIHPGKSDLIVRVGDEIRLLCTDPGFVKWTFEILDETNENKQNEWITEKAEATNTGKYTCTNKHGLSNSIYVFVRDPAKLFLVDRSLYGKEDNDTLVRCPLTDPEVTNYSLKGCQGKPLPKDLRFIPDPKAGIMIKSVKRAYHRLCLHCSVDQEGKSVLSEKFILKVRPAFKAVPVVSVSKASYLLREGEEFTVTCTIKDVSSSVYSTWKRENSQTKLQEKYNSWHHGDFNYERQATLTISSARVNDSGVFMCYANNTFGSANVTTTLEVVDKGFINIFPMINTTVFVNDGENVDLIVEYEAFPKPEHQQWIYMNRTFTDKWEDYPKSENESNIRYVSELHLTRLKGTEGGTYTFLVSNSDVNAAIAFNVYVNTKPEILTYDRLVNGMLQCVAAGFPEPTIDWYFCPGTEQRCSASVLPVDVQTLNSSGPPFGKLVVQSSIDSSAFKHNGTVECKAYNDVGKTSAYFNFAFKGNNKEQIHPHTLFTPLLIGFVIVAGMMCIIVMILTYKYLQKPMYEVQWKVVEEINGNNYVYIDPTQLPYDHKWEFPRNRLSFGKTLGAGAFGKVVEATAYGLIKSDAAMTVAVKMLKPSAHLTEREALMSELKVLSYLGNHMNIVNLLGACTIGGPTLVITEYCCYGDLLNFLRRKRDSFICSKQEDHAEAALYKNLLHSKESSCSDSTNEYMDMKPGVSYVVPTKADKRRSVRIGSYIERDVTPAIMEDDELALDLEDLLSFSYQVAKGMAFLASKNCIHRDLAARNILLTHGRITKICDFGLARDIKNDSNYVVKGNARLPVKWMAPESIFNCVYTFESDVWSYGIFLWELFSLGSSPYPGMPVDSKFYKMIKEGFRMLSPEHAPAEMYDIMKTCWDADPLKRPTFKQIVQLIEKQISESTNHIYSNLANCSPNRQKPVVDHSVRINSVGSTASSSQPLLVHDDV
UniProt P62344, sequence (whole entry, looked up): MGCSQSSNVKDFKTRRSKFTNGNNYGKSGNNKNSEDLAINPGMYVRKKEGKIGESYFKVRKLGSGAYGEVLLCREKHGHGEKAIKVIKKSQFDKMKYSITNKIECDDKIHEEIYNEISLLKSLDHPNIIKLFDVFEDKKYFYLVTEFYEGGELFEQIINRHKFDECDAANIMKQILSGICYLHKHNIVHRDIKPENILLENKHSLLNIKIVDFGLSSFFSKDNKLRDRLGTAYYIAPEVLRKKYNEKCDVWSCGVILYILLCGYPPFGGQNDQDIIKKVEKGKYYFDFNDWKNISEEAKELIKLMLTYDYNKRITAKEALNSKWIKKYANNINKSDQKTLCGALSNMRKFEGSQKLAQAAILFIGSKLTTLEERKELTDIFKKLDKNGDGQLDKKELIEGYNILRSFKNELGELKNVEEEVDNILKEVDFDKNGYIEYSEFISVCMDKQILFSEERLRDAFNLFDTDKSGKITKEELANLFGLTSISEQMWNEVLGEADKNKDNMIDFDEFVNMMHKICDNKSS
UniProt P31645, sequence (whole entry, looked up): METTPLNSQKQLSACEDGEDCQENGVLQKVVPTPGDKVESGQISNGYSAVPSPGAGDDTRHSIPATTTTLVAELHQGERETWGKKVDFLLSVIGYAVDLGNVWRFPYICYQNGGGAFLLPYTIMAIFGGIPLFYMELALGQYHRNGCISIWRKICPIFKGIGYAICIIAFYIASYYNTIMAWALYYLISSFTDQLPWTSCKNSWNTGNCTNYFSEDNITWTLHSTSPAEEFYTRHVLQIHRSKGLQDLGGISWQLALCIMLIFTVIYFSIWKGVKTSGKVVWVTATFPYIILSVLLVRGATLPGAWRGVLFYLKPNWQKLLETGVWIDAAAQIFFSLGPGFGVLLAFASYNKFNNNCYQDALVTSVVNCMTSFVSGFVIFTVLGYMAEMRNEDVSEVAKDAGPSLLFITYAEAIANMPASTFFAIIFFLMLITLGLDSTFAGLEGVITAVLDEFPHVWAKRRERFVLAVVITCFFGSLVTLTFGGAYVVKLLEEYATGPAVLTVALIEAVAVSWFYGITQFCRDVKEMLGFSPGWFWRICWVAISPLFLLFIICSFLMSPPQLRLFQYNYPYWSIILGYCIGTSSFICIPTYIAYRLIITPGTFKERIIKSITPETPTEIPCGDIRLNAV
UniProt O15146, sequence (whole entry, looked up): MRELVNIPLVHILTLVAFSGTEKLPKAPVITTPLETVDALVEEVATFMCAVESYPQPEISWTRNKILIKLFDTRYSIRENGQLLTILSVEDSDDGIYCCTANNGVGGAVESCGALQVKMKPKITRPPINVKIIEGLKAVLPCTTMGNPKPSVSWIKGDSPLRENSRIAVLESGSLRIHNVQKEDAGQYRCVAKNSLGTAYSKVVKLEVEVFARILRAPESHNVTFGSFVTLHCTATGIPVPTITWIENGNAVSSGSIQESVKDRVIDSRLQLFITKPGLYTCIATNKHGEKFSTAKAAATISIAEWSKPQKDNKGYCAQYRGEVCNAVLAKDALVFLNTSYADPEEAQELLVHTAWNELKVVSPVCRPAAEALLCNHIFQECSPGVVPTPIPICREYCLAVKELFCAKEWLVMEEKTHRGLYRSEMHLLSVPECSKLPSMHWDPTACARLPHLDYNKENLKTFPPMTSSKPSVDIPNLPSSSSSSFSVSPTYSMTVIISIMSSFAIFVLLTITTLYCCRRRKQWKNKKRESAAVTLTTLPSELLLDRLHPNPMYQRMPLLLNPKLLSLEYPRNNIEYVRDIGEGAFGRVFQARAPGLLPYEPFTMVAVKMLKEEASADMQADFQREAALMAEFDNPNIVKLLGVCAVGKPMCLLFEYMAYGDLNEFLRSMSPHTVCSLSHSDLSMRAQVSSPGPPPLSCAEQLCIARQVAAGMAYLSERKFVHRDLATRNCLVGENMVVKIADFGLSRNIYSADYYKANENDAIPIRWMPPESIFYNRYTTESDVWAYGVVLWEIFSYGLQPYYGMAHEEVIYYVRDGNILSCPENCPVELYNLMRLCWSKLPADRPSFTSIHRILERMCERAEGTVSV
UniProt P37023, sequence (whole entry, looked up): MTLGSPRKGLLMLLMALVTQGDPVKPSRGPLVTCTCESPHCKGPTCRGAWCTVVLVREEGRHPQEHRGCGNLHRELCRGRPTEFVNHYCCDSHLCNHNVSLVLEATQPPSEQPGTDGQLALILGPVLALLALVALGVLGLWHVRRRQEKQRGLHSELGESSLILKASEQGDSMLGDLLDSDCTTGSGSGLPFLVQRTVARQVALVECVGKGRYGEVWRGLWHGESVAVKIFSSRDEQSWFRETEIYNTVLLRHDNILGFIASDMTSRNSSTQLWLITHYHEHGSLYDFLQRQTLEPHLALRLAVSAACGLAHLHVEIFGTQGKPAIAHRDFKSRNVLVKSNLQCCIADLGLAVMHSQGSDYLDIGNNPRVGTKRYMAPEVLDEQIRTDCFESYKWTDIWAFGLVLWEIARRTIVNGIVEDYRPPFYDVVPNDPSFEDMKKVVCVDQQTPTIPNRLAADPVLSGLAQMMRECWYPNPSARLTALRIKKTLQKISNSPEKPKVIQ
UniProt P61075, sequence (whole entry, looked up): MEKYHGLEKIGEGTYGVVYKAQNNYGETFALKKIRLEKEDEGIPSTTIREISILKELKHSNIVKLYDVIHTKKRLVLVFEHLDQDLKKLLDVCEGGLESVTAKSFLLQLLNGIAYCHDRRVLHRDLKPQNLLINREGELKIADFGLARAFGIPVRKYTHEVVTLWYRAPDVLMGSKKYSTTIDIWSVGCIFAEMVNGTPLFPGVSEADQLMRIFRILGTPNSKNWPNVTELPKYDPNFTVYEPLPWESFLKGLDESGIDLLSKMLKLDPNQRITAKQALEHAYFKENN

Sample 1
Target: Beta-1 adrenergic receptor (ADRB1, Homo sapiens, UniProt P08588)
UniProt P08588, sequence (whole entry, looked up): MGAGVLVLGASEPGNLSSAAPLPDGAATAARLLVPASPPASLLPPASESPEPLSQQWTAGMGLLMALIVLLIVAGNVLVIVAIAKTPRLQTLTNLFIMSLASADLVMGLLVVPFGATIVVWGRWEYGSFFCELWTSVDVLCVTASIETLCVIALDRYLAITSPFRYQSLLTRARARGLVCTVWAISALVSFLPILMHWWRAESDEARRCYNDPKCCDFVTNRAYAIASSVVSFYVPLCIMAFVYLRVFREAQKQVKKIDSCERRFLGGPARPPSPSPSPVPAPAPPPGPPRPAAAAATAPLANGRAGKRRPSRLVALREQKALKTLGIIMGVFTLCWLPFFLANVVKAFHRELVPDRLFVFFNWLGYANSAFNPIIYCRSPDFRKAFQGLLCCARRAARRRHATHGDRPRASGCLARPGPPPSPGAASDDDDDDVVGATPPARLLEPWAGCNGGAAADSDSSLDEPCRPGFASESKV
Action: agonist
CCCN(CCC)[C@H]1CCc2c(O)cccc2C1 has an EC50 of no less than 100 µM.
Oc1ccc(OC[C@@H]2CNCC[C@H]2c2ccc(F)cc2)cc1O gave an EC50 of no less than 100 µM.
For COCCN1CCN(c2ccccc2OC)CC1, the EC50 was no less than 100 µM.
For c1cc2cc(N3CCNCC3)ccc2cn1, the EC50 was 2 µM.
The EC50 of CN(C)C(=O)Oc1cc(OC(=O)N(C)C)cc(C(O)CNC(C)(C)C)c1 (stereo not drawn) is reported as no less than 100 µM.
The EC50 of O=C1C=CC(=O)c2c1ccc1c2ccc2ccccc21 is reported as no less than 100 µM.

Sample 2
SMILES: CC(C)(C)c1cc(C=C(C#N)C#N)cc(Br)c1O
Read-out: enzyme activity
Action: inhibitor
Tested at: 0.5 µM
For Serine/threonine-protein kinase TAO1 (TAOK1, Homo sapiens, UniProt Q7L7X3): remaining activity read 97.9%.
Casein kinase I isoform alpha (CSNK1A1, Homo sapiens, UniProt P48729); relative to: control — remaining activity: 84.5%.
Casein kinase II subunit alpha (CSNK2A1, Homo sapiens, UniProt P68400); relative to: control — remaining activity: 99.3%.
For Mast/stem cell growth factor receptor Kit (KIT, Homo sapiens, UniProt P10721); relative to: control: remaining activity read 97.9%.
It gave 103% for remaining activity (cGMP-dependent protein kinase 1 (PRKG1, Homo sapiens, UniProt Q13976); relative to: control).
Activin receptor type-1-like (ACVRL1, Homo sapiens, UniProt P37023) — remaining activity: 105%.
For Muscle, skeletal receptor tyrosine-protein kinase (MUSK, Homo sapiens, UniProt O15146): remaining activity read 103%.

Single results of other studies
For CCC(=N\O)/C(C)=C/c1ccc(F)cc1, the remaining binding was 87% (Calcium-dependent protein kinase 1 (CDPK1, Plasmodium falciparum, UniProt P62344); cell-free assay, competition with immobilised ligand; 1 µM).
For CC(C)n1cnc(-c2ccc(F)cc2)c1-c1ncc(C(=O)Nc2ccc(N3CCN(C)CC3)cc2)[nH]1, “patients with influenza-like illness” read 0% (human, idiopathic pulmonary fibrosis; 30 mg once daily, trial, treatment-emergent).
CNC(=O)c1cc(C(=O)NC2CC2)cn(Cc2ccccc2)c1=O gave an inhibition of 13.6% (5-hydroxytryptamine receptor 7 (HTR7, Homo sapiens, UniProt P34969); binding, radioligand binding; 10 µM).
The remaining binding of c1ccc(N2CCN(Cc3nc4ccccc4[nH]3)CC2)nc1 is reported as 100% (Cyclin-dependent kinase 2 homolog (CRK2, Plasmodium falciparum, UniProt P61075); cell-free assay, competition with immobilised ligand; 1 µM).
For COc1ccc2c(c1)O[C@H](c1ccc(OC)c(OC)c1)C[C@@H]2NC(=O)C1(c2ccc3c(c2)OC(F)(F)O3)CC1, the inhibition was -12.4% (Sodium-dependent serotonin transporter (SLC6A4, Homo sapiens, UniProt P31645); cell-free assay; 10 µM).

For quick reference, copied from above (single results of other studies):
For CC(C)n1cnc(-c2ccc(F)cc2)c1-c1ncc(C(=O)Nc2ccc(N3CCN(C)CC3)cc2)[nH]1, “patients with influenza-like illness” read 0% (human, idiopathic pulmonary fibrosis; 30 mg once daily, trial, treatment-emergent).
For COc1ccc2c(c1)O[C@H](c1ccc(OC)c(OC)c1)C[C@@H]2NC(=O)C1(c2ccc3c(c2)OC(F)(F)O3)CC1, the inhibition was -12.4% (Sodium-dependent serotonin transporter (SLC6A4, Homo sapiens, UniProt P31645); cell-free assay; 10 µM).
CNC(=O)c1cc(C(=O)NC2CC2)cn(Cc2ccccc2)c1=O gave an inhibition of 13.6% (5-hydroxytryptamine receptor 7 (HTR7, Homo sapiens, UniProt P34969); binding, radioligand binding; 10 µM).
